Published values from different studies.
Parts stem from different laboratories: compare values within a part only.
Chain of UniProt P06241 (whole entry, looked up): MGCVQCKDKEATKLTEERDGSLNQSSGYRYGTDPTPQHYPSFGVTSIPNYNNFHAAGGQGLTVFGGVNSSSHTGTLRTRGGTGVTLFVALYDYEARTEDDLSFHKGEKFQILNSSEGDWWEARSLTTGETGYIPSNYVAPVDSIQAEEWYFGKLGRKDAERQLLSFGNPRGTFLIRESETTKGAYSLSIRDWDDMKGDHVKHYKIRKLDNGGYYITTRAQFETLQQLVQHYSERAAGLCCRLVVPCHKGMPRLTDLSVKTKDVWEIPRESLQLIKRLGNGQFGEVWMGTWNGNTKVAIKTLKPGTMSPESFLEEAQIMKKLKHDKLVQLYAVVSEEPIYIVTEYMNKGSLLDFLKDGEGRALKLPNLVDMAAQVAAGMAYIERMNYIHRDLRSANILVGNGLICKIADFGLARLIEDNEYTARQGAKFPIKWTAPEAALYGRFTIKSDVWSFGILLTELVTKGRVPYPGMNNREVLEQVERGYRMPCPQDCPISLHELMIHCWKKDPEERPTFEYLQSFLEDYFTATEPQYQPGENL
Chain of UniProt Q13976 (whole entry, looked up): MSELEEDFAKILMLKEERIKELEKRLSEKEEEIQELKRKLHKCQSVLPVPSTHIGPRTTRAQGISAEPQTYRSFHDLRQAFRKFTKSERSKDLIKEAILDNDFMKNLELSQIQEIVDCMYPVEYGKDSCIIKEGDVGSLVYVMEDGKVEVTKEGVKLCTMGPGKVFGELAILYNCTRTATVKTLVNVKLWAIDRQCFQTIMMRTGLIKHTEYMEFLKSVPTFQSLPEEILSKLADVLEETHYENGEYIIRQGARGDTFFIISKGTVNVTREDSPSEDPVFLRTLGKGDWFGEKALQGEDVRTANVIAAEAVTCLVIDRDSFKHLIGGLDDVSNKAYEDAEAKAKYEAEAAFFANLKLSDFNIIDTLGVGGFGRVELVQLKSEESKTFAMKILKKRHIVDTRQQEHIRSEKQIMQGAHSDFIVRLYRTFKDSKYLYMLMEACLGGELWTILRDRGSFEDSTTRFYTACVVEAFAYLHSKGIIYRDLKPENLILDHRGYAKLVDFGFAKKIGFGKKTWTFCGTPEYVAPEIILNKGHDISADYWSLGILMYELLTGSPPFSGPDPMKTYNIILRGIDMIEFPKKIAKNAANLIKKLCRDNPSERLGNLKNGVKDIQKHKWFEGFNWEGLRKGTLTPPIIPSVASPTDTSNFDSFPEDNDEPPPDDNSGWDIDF
Chain of UniProt O00506 (whole entry, looked up): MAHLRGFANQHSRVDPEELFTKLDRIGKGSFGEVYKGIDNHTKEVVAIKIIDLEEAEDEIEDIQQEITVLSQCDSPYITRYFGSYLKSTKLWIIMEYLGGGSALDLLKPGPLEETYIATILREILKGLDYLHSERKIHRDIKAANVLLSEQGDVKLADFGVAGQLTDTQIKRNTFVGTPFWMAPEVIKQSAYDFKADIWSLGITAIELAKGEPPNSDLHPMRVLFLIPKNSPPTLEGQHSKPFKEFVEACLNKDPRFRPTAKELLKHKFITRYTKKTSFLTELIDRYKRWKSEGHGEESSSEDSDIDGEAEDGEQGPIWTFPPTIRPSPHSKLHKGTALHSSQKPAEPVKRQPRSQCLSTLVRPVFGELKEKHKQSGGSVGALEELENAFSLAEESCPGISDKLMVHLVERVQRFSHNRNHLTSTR
Chain of UniProt Q5VT25 (whole entry, looked up): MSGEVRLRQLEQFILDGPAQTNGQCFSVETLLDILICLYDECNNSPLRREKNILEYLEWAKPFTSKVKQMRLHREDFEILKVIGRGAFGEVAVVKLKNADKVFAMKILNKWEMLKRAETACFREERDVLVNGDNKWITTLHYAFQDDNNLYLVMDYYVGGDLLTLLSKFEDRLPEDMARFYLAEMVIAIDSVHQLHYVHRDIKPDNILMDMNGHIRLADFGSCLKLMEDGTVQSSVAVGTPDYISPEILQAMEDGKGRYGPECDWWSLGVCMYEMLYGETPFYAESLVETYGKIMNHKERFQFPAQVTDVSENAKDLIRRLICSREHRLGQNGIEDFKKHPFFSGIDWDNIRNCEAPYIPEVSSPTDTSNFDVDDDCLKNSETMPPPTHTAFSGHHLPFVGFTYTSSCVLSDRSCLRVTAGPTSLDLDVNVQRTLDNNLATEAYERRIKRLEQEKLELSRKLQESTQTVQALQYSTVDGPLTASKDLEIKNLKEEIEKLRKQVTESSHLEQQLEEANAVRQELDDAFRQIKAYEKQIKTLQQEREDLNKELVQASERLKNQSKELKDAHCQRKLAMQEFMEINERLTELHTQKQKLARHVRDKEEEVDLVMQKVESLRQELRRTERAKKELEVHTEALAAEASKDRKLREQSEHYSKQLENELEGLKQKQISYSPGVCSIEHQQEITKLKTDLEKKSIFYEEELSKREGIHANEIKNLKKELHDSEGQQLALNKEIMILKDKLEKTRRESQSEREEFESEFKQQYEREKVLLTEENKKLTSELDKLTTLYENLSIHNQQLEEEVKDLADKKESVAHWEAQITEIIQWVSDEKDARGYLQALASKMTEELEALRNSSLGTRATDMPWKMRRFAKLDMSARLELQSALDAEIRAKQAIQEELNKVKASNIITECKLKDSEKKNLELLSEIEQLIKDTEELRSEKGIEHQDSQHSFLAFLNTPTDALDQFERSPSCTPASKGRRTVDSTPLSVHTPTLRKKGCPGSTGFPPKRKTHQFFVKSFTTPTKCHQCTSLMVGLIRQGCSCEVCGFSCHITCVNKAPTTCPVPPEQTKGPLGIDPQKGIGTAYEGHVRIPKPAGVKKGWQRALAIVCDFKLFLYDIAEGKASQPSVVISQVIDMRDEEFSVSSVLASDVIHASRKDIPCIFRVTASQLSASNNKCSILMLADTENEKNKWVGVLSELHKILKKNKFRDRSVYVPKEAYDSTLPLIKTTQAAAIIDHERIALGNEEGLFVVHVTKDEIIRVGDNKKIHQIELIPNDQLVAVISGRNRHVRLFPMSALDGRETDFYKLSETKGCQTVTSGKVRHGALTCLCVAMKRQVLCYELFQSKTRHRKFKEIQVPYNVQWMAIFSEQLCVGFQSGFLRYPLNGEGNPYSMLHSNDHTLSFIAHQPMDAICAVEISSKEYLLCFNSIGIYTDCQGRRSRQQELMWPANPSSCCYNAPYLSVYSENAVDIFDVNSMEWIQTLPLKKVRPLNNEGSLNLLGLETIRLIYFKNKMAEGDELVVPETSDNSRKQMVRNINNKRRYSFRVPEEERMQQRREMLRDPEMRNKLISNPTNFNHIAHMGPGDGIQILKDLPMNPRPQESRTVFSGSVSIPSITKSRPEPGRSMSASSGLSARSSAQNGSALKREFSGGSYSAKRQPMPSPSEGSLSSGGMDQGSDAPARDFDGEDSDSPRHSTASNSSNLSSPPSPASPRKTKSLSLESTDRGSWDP
Chain of UniProt Q9P2K8 (whole entry, unmodified, looked up): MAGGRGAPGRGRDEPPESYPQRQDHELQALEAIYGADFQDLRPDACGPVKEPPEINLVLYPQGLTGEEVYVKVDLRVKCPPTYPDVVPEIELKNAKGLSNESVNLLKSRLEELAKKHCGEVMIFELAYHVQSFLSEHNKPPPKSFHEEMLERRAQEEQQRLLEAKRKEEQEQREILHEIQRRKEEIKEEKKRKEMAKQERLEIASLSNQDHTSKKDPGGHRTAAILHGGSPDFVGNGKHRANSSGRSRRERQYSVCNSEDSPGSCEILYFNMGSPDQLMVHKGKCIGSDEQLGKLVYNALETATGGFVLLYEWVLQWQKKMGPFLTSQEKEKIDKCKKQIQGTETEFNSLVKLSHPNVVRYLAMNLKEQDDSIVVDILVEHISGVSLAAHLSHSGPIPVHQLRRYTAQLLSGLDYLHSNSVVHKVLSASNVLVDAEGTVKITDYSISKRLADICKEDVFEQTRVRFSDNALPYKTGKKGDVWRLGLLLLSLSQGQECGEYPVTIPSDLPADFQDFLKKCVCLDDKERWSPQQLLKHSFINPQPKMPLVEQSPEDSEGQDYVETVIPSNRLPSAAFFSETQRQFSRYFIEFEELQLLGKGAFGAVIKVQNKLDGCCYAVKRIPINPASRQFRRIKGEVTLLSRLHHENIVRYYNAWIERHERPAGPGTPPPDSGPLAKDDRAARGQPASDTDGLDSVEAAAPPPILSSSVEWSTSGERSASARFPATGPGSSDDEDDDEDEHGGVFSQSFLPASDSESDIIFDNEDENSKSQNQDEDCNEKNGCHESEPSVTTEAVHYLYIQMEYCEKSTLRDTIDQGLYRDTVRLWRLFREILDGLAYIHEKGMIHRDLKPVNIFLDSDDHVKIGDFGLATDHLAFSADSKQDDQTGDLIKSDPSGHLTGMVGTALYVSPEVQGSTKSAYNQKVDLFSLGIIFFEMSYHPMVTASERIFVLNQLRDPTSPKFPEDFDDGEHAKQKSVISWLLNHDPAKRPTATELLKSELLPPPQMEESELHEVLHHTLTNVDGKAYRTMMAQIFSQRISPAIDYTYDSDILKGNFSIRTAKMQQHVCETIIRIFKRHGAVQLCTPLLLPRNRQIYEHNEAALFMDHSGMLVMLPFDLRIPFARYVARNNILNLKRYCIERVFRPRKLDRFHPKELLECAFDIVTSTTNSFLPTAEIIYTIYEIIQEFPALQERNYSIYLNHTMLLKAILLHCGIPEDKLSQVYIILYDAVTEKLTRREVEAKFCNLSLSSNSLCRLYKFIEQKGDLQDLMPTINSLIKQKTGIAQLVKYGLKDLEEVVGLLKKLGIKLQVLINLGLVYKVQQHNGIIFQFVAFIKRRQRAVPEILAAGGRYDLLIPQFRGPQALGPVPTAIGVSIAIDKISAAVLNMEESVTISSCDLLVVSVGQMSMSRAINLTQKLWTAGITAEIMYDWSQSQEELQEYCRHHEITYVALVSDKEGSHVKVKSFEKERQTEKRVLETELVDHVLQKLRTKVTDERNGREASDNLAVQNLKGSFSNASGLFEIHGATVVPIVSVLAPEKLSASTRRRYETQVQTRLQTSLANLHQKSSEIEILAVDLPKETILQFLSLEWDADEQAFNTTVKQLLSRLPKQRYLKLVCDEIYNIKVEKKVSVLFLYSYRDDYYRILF

Sample 1
SMILES: O=C1Cc2c([nH]c3ccc([N+](=O)[O-])cc23)-c2ccccc2N1
Effect on: enzyme activity
Action: inhibitor
Tested at: 0.5 µM
Reference: control
CDC42BPA (Homo sapiens, UniProt Q5VT25) — remaining activity: 96.2%.
FGR (Homo sapiens, UniProt P09769) — remaining activity: 50.3%.
The remaining activity was 74.5% (PRKX (Homo sapiens, UniProt P51817)).
For STK25 (Homo sapiens, UniProt O00506): remaining activity read 83.6%.
SRC (Homo sapiens, UniProt P12931) — remaining activity: 39.7%.
The remaining activity was 98.9% (MATK (Homo sapiens, UniProt P42679)).
For TAOK3 (Homo sapiens, UniProt Q9H2K8): remaining activity read 76.7%.
FYN (Homo sapiens, UniProt P06241) — remaining activity: 53.1%.
For NLK (Homo sapiens, UniProt Q9UBE8): remaining activity read 95.5%.
For FLT4 (Homo sapiens, UniProt P35916): remaining activity read 77.8%.

Sample 2
SMILES: O=C(NCc1ncc(C(F)(F)F)cc1Cl)c1ccc2c(c1)C1(CCS(=O)(=O)CC1)[C@H](C1CC1)N2S(=O)(=O)c1ccc(F)cc1
Effect on: cell-free assay
Technique: competition with immobilised ligand
Tested at: 1 µM
The remaining binding was 86% (WNK3 (Homo sapiens, UniProt Q9BYP7)).
It gave 100% for remaining binding (KIT (Homo sapiens, UniProt P10721, D816V)).
MYLK4 (Homo sapiens, UniProt Q86YV6) — remaining binding: 100%.
For PIK3C2B (Homo sapiens, UniProt O00750): remaining binding read 100%.
For HUNK (Homo sapiens, UniProt P57058): remaining binding read 84%.
It gave 100% for remaining binding (CSNK1G2 (Homo sapiens, UniProt P78368)).
It gave 100% for remaining binding (PRKG1 (Homo sapiens, UniProt Q13976)).
It gave 87% for remaining binding (TSSK3 (Homo sapiens, UniProt Q96PN8)).
eIF-2-alpha kinase GCN2, C-terminal kinase domain (EIF2AK4, Homo sapiens, UniProt Q9P2K8, S808G) — remaining binding: 88%.

Sample 3
Organism: Sarcocystis neurona
Effect on: parasite growth
Tested at: 10 µM
Time: 96 h
Notes: first screen
Reference: untreated
`Cc1ccnc2c1NC(=O)c1cccnc1N2C1CC1`: “log2 fold change” 0.13.
`Cc1ccc(N(CC2=NCCN2)c2cccc(O)c2)cc1`: “log2 fold change” 0.23.
For `O=C1N[C@H](C(=O)O)CS1`, “log2 fold change” read 0.16.
For `Cc1cnc(C(=O)NCCc2ccc(S(=O)(=O)NC(=O)NC3CCCCC3)cc2)cn1`, “log2 fold change” read 0.31.
Under “log2 fold change”, `OCCN1CCN(CCCN2c3ccccc3Sc3ccc(C(F)(F)F)cc32)CC1` is recorded as -3.54.
Under “log2 fold change”, `COCCOC(=O)C1=C(C)NC(C)=C(C(=O)OC(C)C)C1c1cccc([N+](=O)[O-])c1` (centres unmarked) is recorded as 0.19.
`CC(C(=O)O)c1ccc(CC2CCCC2=O)cc1` (centres unmarked) — result for “log2 fold change”: 0.12.
`Oc1ccc(/C=C/c2cc(O)cc(O)c2)cc1` — result for “log2 fold change”: 0.14.
Under “log2 fold change”, `CN1CCN(CCCN2c3ccccc3Sc3ccc(Cl)cc32)CC1` is recorded as -0.56.

Mixed results
`CC(C)C[C@@H](C=O)NC(=O)[C@H](CC(C)C)NC(=O)[C@H](CC(C)C)NC(=O)OCc1ccccc1` gave a protein level of 1.32 (Membrane-associated tyrosine- and threonine-specific cdc2-inhibitory kinase (PKMYT1, Homo sapiens, UniProt Q99640); immunoblotting; 1 µM, unit not given; reference: untreated).

For quick reference, copied from above (sample 1):
FGR (Homo sapiens, UniProt P09769) — remaining activity: 50.3%.
The remaining activity was 74.5% (PRKX (Homo sapiens, UniProt P51817)).
For STK25 (Homo sapiens, UniProt O00506): remaining activity read 83.6%.
SRC (Homo sapiens, UniProt P12931) — remaining activity: 39.7%.
